Measured values gathered from unrelated publications.
Each line is one published result; not all experiments were run side by side.
B1: human suprabasin; sequence looked up; chain DDPIEKVIEGINRGLSNAEREVGKALDGINSGITHAGREVEKVFNGLSNMGSHTGKELDKGVQGLNHGMDKVAHEINHGIGQAGKEAEKLGHGVNNAAGQVGKEADKLIHHGVHHGANQAGSEAGKFGQGVDNAAGQAGNEAGRFGQGVHHAAGQAGNEAGRFGQGVHHAAGQAGNEAGRFGQGAHHGLSEGWKETEKFGQGIHHAAGQVGKEAEKFGQGAHHAAGQAGNEAGRFGQGVHHGLSEGWKETEKFGQGVHHTAGQVGKEAEKFGQGAHHAAGQAGNEAGRFGQGAHHAAGQAGNEAGRFGQGVHHGLSEGWKETEKFGQGVHHAASQFGKETEKLGHGVHHGVNEAWKEAEKFGQGVHHAASQVGKEEDRVVQGLHHGVSQAGREAGQFGHDIHHTAGQAGKEGDIAVHGVQPGVHEAGKEAGQFGQGVHHTLEQAGKEADKAVQGFHTGVHQAGKEAEKLGQGVNHAADQAGKEVEKLGQGAHHAAGQAGKELQNAHNGVNQASKEANQLLNGNHQSGSSSHQGGATTTPLASGASVNTPFINLPALWRSVANIMP

Molecule | tested on | assay | system | setting | scale | measurement | result
colistin | Pseudomonas aeruginosa |  | clinical isolate RKI 627/13 |  |  | MIC | ≤ 1 mg/L
colistin | Pseudomonas aeruginosa |  | PA1072 PER-producing isolate |  |  | MIC | 2 mg/L
polymyxin B | Pseudomonas aeruginosa | broth microdilution | PAO1, Mueller-Hinton broth | 24 h, 37 °C |  | MIC | 1 mg/L
polymyxin B acetate | Pseudomonas aeruginosa | broth microdilution | PAO1 |  |  | MIC | 0.125 mg/L
human RGPD3 | CYB5R4 knockout human cells | PP4 interaction, 3xFLAG-PP4C IP-MS |  | concentration not given | relative to: CYB5R4 KO over parental | log2 fold change | -1.06
colistin hydrochloride | Pseudomonas aeruginosa | broth microdilution | PAO1 |  |  | MIC | 0.125 mg/L
colistin | Pseudomonas aeruginosa | broth microdilution | ATCC 9027 | 18 h |  | MIC | 1 µM
polymyxin B sulfate | Pseudomonas aeruginosa | broth microdilution | PAO1 |  |  | MIC | 0.125 mg/L
colistin | Pseudomonas aeruginosa |  | ATCC 27853 |  |  | MIC | 0.5 mg/L
colistin sulfate | Pseudomonas aeruginosa |  | DSM 50071 |  |  | MIC | 0.5 µM
B1 (human suprabasin) | PP6C (human) | co-immunoprecipitation, IP-MS | CYB5R4 knockout cells | concentration not given | relative to: CYB5R4 knockout over parental | log2 fold change | -0.48
gentamicin sulfate | Pseudomonas aeruginosa |  | ATCC BAA-2108, resistant | 18 h, 37 °C, LED light 10 min, 1.57 mW |  | MIC | 8 µM

Some of these lines once more:
Molecule | tested on | assay | system | setting | scale | measurement | result
polymyxin B acetate | Pseudomonas aeruginosa | broth microdilution | PAO1 |  |  | MIC | 0.125 mg/L
